Measurements pooled from the literature.
Each line is one published result; not all experiments were run side by side. Numbers after ± are the reported error.

`C[C@@H]1CCC[C@H](n2cnc(-c3cc(Cl)ccc3-n3cc(Cl)nn3)cc2=O)c2cc(ccn2)-c2c(cnn2C(F)F)NC1=O` has a renal clearance of 4.38 mL/min (human, severe renal impairment, plasma and urine; oral, 60 mg single dose).
For `CC(C)c1nc(N(C)S(C)(=O)=O)nc(-c2ccc(F)cc2)c1/C=C/[C@@H](O)C[C@@H](O)CC(=O)O`, “renal clearance ratio” read 0.97 (healthy human; oral, dose not given, added: darolutamide; baseline: with darolutamide over alone).
For `CC[C@@H]1CN(C(=O)NCC(F)(F)F)C[C@@H]1c1cnc2cnc3[nH]ccc3n12`, the renal clearance was 17.7 mL/min (human, severe renal impairment, urine and plasma; oral, 15 mg single dose, extended release, fasted, arithmetic mean).
With `CCOc1ccc(Cc2cc([C@]34OC[C@](CO)(O3)[C@@H](O)[C@H](O)[C@H]4O)ccc2Cl)cc1` the renal clearance was 0.8 mL/min (human, type 2 diabetes, moderate renal impairment; oral, 15 mg).
For `CC(C)(C)OC[C@@H]1C(=O)NCCN1C(=O)C[C@H](N)Cc1cc(F)c(F)cc1F`, “renal clearance at steady state” read 282 ± 80 mL/min (human; 5 mg once daily, day 10).
`O=c1[nH]c(=O)c2c[nH]nc2[nH]1`: “renal clearance ratio” 193% (human, male, urine and plasma; oral, 10 mg, added: allopurinol 300 mg; baseline: combination over alone).
The renal clearance of `C/C(=C\c1csc(C)n1)[C@@H]1C[C@@H]2O[C@]2(C)CCC[C@H](C)[C@H](O)[C@@H](C)C(=O)C(C)(C)[C@@H](O)CC(=O)N1` is reported as 24.5 mL/min (human patients; intravenous, 70 mg, 0 to 168 h).
`O=C(c1cccnc1-c1ccncc1)N1CCC(O)(Cc2ccccc2)CC1` gave a renal clearance of 6.17 mL/min (healthy human, urine; oral, 400 mg once daily, day 1, arithmetic mean).
The renal clearance of `COc1cc(C(=O)NC2CCN(C)CC2)c(F)cc1Nc1ncc(C(F)(F)F)c(Oc2cccc3c2C(=O)N(C)C3)n1` is reported as 21.7 mL/min (human patients, plasma and urine; oral, 200 mg single dose, 0-24 h, cycle 1).
For `COC(=O)c1ccc2c(c1)NC(=O)/C2=C(\Nc1ccc(N(C)C(=O)CN2CCN(C)CC2)cc1)c1ccccc1`, “renal clearance (0-72 h)” read 19.5 mL/min (healthy human controls matched to Child-Pugh B, urine and plasma; oral, 100 mg single dose, geometric mean).

Repeated from above:
For `CC[C@@H]1CN(C(=O)NCC(F)(F)F)C[C@@H]1c1cnc2cnc3[nH]ccc3n12`, the renal clearance was 17.7 mL/min (human, severe renal impairment, urine and plasma; oral, 15 mg single dose, extended release, fasted, arithmetic mean).
